Published values from different studies.
Numbered parts are unrelated; each lists some results of a single study.

Series 1
Target: RNA binding protein fox-1 homolog 2, RRM domain, GST-SBP tag (RBFOX2, Homo sapiens, UniProt O43251-10, residues 100-194)
Method: RNA Bind-n-Seq
Molecule type: RNA
Medium: in vitro
Concentration: 365 nM
Setting: natural RNA segment, single round, ends assumed
Relative to: no-protein control
Reading: higher = stronger binding
Target sequence (chain): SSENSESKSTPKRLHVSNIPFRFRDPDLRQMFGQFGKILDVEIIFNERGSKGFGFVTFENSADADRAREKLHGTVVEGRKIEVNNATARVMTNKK
Oligonucleotide | RBNS enrichment (R)
GGGAGUUCUACAGUCCGACGAUCGCCCUAGGCGUGGCCUGCGGUCUGGCAGAUCCGUGCUACAGAAUUCGCCUGGUUCCUCUCUAUUUUAAUUUUUCUAACCUAGAGCUUAAUUUCAAUAACUUUUUCAACAGUGGAAUUCUCGGGUGCCAA | 1.26
GGGAGUUCUACAGUCCGACGAUCUGAGUUUUUAUUCUUCCUUCCUUCCAUACAACAAAACAAGUCCAUAGCCUAUGACCCAAGACUGUUUGUGGCCUUAGGAACAAUUGCUUAAGCAGGUCAAGCAUUUUGAAUGGAAUUCUCGGGUGCCAA | 0.523
GGGAGUUCUACAGUCCGACGAUCGGUCGUUGACUGCUUCACACUUACCUUGCUGAACAUGAACUUUCAGACCUAGAAGUCACUUUUAUGAUUUAUGAUAUAUGAUGUGUUUUUUACUAUUGUAUGUCAUUUAAUGGAAUUCUCGGGUGCCAA | 0.28
GGGAGUUCUACAGUCCGACGAUCGAAGGUAUGGAGGCAUGGUUUGUUUCGGUUCAUCUCCAGGAUGUAUACAGUGAAGACAAACCAAAUACUUUUCACCAUUGAACUAUCUGUACAUUAUCUUUGGUAACACUUGGAAUUCUCGGGUGCCAA | 0.312

Series 2
Target: POU domain, class 5, transcription factor 1, POU domain (Pou5f1, Mus musculus, UniProt P20263, residues 131-289)
UniProt P20263, sequence (131-289, looked up): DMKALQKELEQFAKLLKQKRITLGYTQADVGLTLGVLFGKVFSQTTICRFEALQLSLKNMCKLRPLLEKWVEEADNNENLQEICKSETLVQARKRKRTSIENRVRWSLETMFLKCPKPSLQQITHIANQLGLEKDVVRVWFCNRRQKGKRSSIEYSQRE
Method: Spec-seq
Molecule type: double-stranded DNA, one strand shown
Medium: in vitro
Concentration: not given
Setting: whole probe, mean of replicates
Relative to: not given
Reading: lower = stronger binding
Oligonucleotide | relative binding energy [ln ratio]
GAGTCGTCTCGTCAGCACGTATTAATCCGTAGAGCACTCAGGTC | 0.158
GAGTCGTCTCGTCAGCACATCCACATCCGTAGAGCACTCAGGTC | 0.464
GAGTCGTCTCGTCAGCACATACTGATCCGTAGAGCACTCAGGTC | 0.0228

Series 3
Target: Interferon regulatory factor 3, full length, phosphomimetic (IRF3, Homo sapiens, UniProt Q14653, residues 1-427, S386D/S396D/S398D/S402D/T404D/S405D)
Method: protein-binding microarray
Molecule type: double-stranded DNA, one strand shown
Medium: in vitro
Concentration: 2540 nM top
Setting: 60-bp whole probe
With: salmon DNA 0.4 mg/ml
Relative to: random background probes
Reading: higher = stronger binding
All sequences stand within: GCCTAGCAC … GTGCTAGGTCTTGATTCGCTTGACGCTGCTG
Target sequence (chain): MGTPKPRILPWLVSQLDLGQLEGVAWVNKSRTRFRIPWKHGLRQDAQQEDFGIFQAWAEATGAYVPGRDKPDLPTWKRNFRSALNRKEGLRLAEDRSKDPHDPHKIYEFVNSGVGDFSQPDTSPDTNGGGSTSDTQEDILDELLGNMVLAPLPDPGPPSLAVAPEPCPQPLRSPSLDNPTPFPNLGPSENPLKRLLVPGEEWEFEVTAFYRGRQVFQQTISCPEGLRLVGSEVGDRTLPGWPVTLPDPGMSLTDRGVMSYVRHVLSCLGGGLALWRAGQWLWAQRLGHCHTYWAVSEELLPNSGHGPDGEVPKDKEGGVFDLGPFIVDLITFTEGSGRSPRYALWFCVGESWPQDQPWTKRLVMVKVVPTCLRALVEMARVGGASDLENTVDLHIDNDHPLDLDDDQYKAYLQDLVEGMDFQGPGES
Oligonucleotide | fitted relative affinity [z-score]
TCAAATCTTTTTCCCTAACT | 1.48
GACGATTCCAGTTTAGAGAC | 1.47
TTAGATTTCAGTGCCGATTA | 1.3
TCAGCTGTCCTTTGCAAACT | 0.0841
GACGGATTGGGTTTCGGGAC | 1.74

Single results of other studies
Molecule | target | assay | test system | conditions | scale | measurement | value
PhoQ, residues 284 288 289 292 302 303 DDMDFR | PhoP, residues 12 14 15 18 19 LHTVM (Escherichia coli, UniProt P23836) | Sort-seq, item: YFP reporter | E. coli | PhoQ-PhoP variant library, with: 10 µM Mg2+ | relative to: high Mg2+ state, higher = stronger signaling | fold induction | 0.812

For quick reference, copied from above (series 1):
Oligonucleotide | RBNS enrichment (R)
GGGAGUUCUACAGUCCGACGAUCGAAGGUAUGGAGGCAUGGUUUGUUUCGGUUCAUCUCCAGGAUGUAUACAGUGAAGACAAACCAAAUACUUUUCACCAUUGAACUAUCUGUACAUUAUCUUUGGUAACACUUGGAAUUCUCGGGUGCCAA | 0.312
